{"data": "Assay results gathered from unrelated publications", "B1": "Alpha-bungarotoxin (Bungarus multicinctus, UniProt P60615); chain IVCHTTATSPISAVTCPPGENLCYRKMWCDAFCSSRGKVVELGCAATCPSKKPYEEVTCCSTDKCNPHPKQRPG", "B2": "E2 DNA-binding domain 279-365 (HPV16, UniProt P03120); chain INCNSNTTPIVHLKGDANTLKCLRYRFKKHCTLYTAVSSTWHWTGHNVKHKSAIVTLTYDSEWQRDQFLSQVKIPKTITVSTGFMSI", "B3": "RB1 pocket domain A-B, GSGS linker 372-577 (UniProt P06400); chain HTPVRTVMNTIQQLMMILNSASDQPSENLISYFNNCTVNPKESILKRVKDIGYIFKEKFAKAVGQGCVEIGSQRYKLGVRLYYRVMESMLKSEEERLSIQNFSKLLNDNIFHMSLLACALEVVMATYSRSTSQNLDSGTDLSFPWILNVLNLKAFDFYKVIESFIKAEGNLTREMIKHLERCEHRIMESLAWLSDSPLFDLIKQSKGSGSTSLSLFYKKVYRLAYLRLNTLCERLLSEHPELEHIIWTLFQHTLQNEYELMRDRHLDQIMMCSMYGICKVKNIDLKFKIIVTAYKDLPHAVQETFKRVLIKEEEYDSIIVFYNSVFMQRLKTNILQYAST", "note": "Compare with care: the assays were run in different laboratories. ± marks the error that the study gave. Where no end group is shown, it is not given here. [ ]: non-standard residue; d: D form. The star is where a group is joined.", "chain of UniProt P22770 (whole entry, looked up)": "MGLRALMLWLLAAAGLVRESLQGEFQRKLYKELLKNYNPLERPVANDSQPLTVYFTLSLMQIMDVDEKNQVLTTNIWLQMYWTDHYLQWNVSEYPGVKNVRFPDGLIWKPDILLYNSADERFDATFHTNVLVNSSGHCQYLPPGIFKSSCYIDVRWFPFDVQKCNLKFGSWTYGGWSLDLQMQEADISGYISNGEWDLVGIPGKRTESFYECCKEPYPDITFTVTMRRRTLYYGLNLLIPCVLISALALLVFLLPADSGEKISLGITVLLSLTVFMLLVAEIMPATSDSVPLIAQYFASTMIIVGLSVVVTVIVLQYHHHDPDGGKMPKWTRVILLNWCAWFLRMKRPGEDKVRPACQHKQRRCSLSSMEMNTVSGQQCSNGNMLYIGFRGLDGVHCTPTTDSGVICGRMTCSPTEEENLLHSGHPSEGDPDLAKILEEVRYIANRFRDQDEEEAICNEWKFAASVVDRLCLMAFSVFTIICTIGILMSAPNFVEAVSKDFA", "chain of UniProt Q91XE4 (whole entry, looked up)": "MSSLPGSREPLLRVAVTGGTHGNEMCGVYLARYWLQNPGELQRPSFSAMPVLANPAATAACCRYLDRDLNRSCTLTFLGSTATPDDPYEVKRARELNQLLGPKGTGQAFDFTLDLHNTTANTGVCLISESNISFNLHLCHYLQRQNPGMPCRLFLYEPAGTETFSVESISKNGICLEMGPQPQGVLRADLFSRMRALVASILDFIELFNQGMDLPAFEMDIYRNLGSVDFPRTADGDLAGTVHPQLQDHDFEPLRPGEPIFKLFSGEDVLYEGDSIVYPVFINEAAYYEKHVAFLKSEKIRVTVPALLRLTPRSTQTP"}
{"Molecule": "Ac-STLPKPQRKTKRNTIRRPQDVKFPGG (HCV core protein residues 2-27 (hepatitis C virus); N-terminal acetylation)", "tested on": "Acy3 (Mus musculus, UniProt Q91XE4)", "assay": "SPR", "test system": "peptide", "endpoint": "Kd", "result": "170000 ± 13000 nM"}
{"Molecule": "GFCRCFCGRSSCDCICTR (peptide; cyclic, three disulfides)", "tested on": "lef (Bacillus anthracis, UniProt P15917)", "assay": "FRET substrate cleavage, enzyme inhibition assay", "test system": "peptide", "endpoint": "Ki", "result": "1170 ± 92 nM"}
{"Molecule": "YGRKKRRQRRRGSGMSPRREALYRGFRASYDVLRH (TAT peptide 47-57 (HIV-1); N-terminal fluorescein)", "tested on": "SCN5A 1773-1940 (Homo sapiens, UniProt Q14524)", "assay": "FP", "test system": "designed binder", "endpoint": "Kd", "result": "890 nM"}
{"Molecule": "B1 (Alpha-bungarotoxin)", "tested on": "CHRNA7 (Gallus gallus, UniProt P22770)", "assay": "radioligand binding", "scale": "baseline: wild type, higher = more total toxin binding", "endpoint": "relative total binding", "result": "100%"}
{"Molecule": "QEDIIRNIARHLAQVGDSMDRSIPPG (BID 79-104 (Homo sapiens, UniProt P55957); sequence looked up)", "tested on": "BHRF1 1-160 (Epstein-Barr virus, UniProt P03182)", "assay": "ITC", "test system": "peptide", "endpoint": "ΔH", "result": "4.3 ± 0.741 kcal/mol"}
{"Molecule": "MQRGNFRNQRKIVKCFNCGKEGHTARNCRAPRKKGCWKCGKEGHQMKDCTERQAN (NCp7 mature nucleocapsid (HIV-1))", "tested on": "HIV-1 reverse transcriptase p66/p51 (HIV-1)", "assay": "fluorescence titration", "endpoint": "Kd", "result": "30 nM"}
{"Molecule": "BM2 transmembrane peptide (Influenza B virus)", "assay": "solid-state NMR, refers to: His19", "test system": "VM+ membrane pellets", "conditions": "243 K, membrane-bound tetramer, no drug, fourth protonation", "endpoint": "pKa", "result": 4.2}
{"Molecule": "B2 (E2 DNA-binding domain 279-365)", "tested on": "BRD4 long isoform, full-length, phosphorylated (Homo sapiens, UniProt O60885-1)", "assay": "pull-down", "endpoint": "binding", "result": "binds"}
{"Molecule": "H-[dR][dR][dR][dR][dR][dR][dR][dR][dR]VLR-{NHOH} (peptide; SMILES CC(C)C[C@H](NC(=O)[C@@H](NC(=O)[C@@H](CCCNC(=N)N)NC(=O)[C@@H](CCCNC(=N)N)NC(=O)[C@@H](CCCNC(=N)N)NC(=O)[C@@H](CCCNC(=N)N)NC(=O)[C@@H](CCCNC(=N)N)NC(=O)[C@@H](CCCNC(=N)N)NC(=O)[C@@H](CCCNC(=N)N)NC(=O)[C@@H](CCCNC(=N)N)NC(=O)[C@H](N)CCCNC(=N)N)C(C)C)C(=O)N[C@@H](CCCNC(=N)N)C(=O)NO; D-Arg residues 1-9, C-terminal hydroxamic acid; NHOH = ON*)", "tested on": "lethal factor mature (Bacillus anthracis, UniProt P15917)", "assay": "enzyme activity, inhibitor, steady-state kinetics", "test system": "peptide", "endpoint": "Ki", "result": "1.45 nM"}
{"Molecule": "B3", "tested on": "E7 1-51, pS31/pS32 (HPV16, UniProt P03129)", "assay": "NMR", "endpoint": "binding", "result": "binds"}
{"Molecule": "nsp16 (SARS-CoV-2, UniProt P0DTD1)", "tested on": "itself", "assay": "cross-linking", "endpoint": "subunits per oligomer", "result": 2}
{"Molecule": "DDLDALLADKE (PXN 2-10)", "tested on": "E6 (UniProt P06931)", "assay": "SPR", "test system": "peptide", "endpoint": "koff", "result": "0.0017 s⁻¹"}
{"note": "A few entries again:"}
{"Molecule": "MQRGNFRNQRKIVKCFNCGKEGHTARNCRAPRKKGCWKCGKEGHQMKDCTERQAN (NCp7 mature nucleocapsid (HIV-1))", "tested on": "HIV-1 reverse transcriptase p66/p51 (HIV-1)", "assay": "fluorescence titration", "endpoint": "Kd", "result": "30 nM"}
